Assay results from different studies.
Every numbered part comes from another study and shows a few of its results, in no order. Positions count from the first letter of the parent shown.

Series 1 — technique: protein binding microarray; molecule type: double-stranded DNA, one strand shown; medium: in vitro; tested at: not given; baseline: not given; reading: higher = stronger binding
Target: Histone acetyltransferase KAT6A, winged helix 1, GST fusion (KAT6A, Homo sapiens, UniProt Q92794, residues 1-85)
Setting: 8-mer, flanks averaged, mean of 2 arrays, mostly near background
Construct (chain): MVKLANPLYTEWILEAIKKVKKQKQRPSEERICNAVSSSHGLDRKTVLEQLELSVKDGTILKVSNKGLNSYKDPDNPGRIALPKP
Strand | E-score
AGGTCACA | 0.00882
ACTAACGA | -0.101
TCCCTGAA | -0.0652
AGAACTTC | -0.148
CCGATGAG | 0.0472
GTCACAAC | -0.0208
AGAAACTG | -0.0686
AGAGAGCT | -0.207
CGGGATCC | 0.364
AAGATTTG | -0.0591
AGGTAGGC | -0.107
CATAGAAC | -0.0894
GAAGTAAC | -0.0773
AAGTTCGA | -0.163

Series 2 — technique: protein-binding microarray; molecule type: double-stranded DNA, one strand shown; medium: in vitro; tested at: 250 nM; setting: 60-bp whole probe; added: salmon DNA 0.4 mg/ml; baseline: random background probes; reading: higher = stronger binding; shared flanks, not repeated: GCCTAGCAC … GTCTTGATTCGCTTGACGCTGCTG
Target: Interferon regulatory factor 7, full length, phosphomimetic (IRF7, Homo sapiens, UniProt Q92985, residues 1-503, S101K/S471D/S472D/S475D/S476D/S477D/S483D/S484D/S487D)
Construct (chain): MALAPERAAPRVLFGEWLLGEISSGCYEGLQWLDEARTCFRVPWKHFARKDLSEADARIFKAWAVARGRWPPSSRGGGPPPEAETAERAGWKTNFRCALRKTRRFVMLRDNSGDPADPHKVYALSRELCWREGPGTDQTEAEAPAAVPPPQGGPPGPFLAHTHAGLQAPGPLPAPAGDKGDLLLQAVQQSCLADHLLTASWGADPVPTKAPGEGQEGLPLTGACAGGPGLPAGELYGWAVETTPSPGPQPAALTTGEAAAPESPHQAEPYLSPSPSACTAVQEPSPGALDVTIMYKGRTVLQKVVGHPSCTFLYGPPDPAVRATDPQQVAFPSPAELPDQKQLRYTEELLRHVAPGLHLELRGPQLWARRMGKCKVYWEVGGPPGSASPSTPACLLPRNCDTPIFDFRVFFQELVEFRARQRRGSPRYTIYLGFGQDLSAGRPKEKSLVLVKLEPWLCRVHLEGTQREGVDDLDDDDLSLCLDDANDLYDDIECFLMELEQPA
Strand | log fluorescence [z-score]
GAGGGTTTCCTTCTCCTGACGTGCTAG | 1.26
TTAGATTTCGGGTATCGAATAGTGCTA | 1.02
TATGGTTTTTTTTTAATTGAGTGCTAG | 0.661
GACGAACTGGGGTATCGAGACGTGCTA | -0.53
GACGGACTGGGGTTTAGGGACGTGCTA | -0.911
TCAGATTTCCATTATTGACTGTGCTAG | 1.01
TTGGATCTCAGTATCGATTAGTGCTAG | 0.552
TCAGGTATAGCACTAAGACTGTGCTAG | -0.706
TTAGGTTTCGGTAGCGGTTAGTGCTAG | 3.46
GTCGATCTCAGTATCGAGACGTGCTAG | 0.423
TTAGGTCTCCTTATCATTTAGTGCTAG | 0.304
GACGATCCCAGTTTCGAGACGTGCTAG | 4.6
GACGGTCTCCTTATCCCGACGTGCTAG | 0.422

Series 3 — technique: RNA Bind-n-Seq; molecule type: RNA; medium: in vitro; tested at: 1 µM; setting: whole 134-nt RNA, ends assumed; added: 150 mM KCl; baseline: input library; reading: higher = stronger binding
Target: Ras GTPase-activating protein-binding protein 1, C-terminal RGG region (G3BP1, Homo sapiens, UniProt Q13283)
Sequence of UniProt Q13283 (whole entry, looked up): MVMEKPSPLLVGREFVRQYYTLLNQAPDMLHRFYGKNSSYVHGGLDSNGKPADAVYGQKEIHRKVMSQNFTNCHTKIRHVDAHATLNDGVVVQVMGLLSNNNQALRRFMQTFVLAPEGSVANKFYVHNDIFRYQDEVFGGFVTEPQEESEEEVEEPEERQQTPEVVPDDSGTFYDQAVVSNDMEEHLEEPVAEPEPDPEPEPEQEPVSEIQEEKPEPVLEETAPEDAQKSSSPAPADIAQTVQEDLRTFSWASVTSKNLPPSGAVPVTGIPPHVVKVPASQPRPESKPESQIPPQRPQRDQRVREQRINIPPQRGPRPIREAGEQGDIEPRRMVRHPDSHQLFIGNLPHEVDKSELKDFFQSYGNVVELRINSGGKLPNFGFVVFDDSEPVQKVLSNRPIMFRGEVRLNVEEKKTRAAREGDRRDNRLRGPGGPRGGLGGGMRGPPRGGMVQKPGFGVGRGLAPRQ
Strand | log2 enrichment
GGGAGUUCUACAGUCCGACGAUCACCAUGCAGGGGGGCAUCUUUGGGAAGUGGGGCAAGGGGGGGAUAGGGAGGGGGGUAACACUUUGGGAACAGGUGGUCCCAGGUCGUUUCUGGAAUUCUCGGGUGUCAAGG | -1.15
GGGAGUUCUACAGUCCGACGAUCUGGGUGAAGAGGGACAGUUACCUUCCUGUGGGCAGUCAUAAUCUCAAGGCGGCCGCCAAGGCCAAGCUAGGCUAUGAUCCCGUGGAGCUAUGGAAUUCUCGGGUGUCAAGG | -1.63
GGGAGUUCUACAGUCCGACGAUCUUACCGACACCGUAGAACAGAGCAAGAGGAGGAUGAAGAGCUAUUAACAGAAAGCUCCAAAGCAACCAAUGUUUGCACUCGAUUUGAAGAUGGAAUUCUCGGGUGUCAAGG | -1.47
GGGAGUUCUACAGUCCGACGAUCAGUCCUGUGCUACACAUCGUAUGUACCGAAUCAAAUUUAAAUUUAAAUUUUUUUAAAAAAGUAUUAUGUUACGCCGUUCGGAUCUGCACUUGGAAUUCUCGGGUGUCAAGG | -2.6
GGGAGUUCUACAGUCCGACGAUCUGUGCUACACAUCGUAUGUACCGAAUCGGGGUUUUUGGGGUUUUUUUGGGGUUUUUUUGGGGAAAGUAUUAUGUUACGCCGUUCGGAUCUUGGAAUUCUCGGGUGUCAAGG | 0.39
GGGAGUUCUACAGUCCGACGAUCCACAGACAACACGCACCCACACAGACACAGAGGGAAGGGGUUGGGAUGGGGACAGGGUGCACAGCAGGGCGGGGUAGGACCUCAGCCCCUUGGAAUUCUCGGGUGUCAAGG | -1.04
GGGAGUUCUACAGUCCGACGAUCUCCUCAAGUCCUGUGCUACACAUCGUAUGUACCGAAUCGGCGGGGCGGCGGGAAAGUAUUAUGUUACGCCGUUCGGAUCUGCACUUCCAGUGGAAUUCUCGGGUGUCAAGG | -0.367
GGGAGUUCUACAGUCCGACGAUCCAAGUCCUGUGCUACACAUCGUAUGUACCGAAUCGGGGCCCGGCCCGGGGCCCGGAAAGUAUUAUGUUACGCCGUUCGGAUCUGCACUUCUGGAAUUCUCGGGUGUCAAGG | -1.73
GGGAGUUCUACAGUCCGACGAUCAGUCCUGUGCUACACAUCGUAUGUACCGAAUCGGUUUUUUUGGAAAGGUUUUUUUGGAAAGUAUUAUGUUACGCCGUUCGGAUCUGCACUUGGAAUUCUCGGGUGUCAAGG | -2.09

Series 4 — technique: DHFR PCA, deep sequencing; medium: yeast; added: (+)-ABA 2500 µM; baseline: wild-type fitted maximum; reading: higher = stronger binding
Target: ABI1, truncated, D143A, DHFR fusion (Arabidopsis thaliana)
Setting: methotrexate growth selection, single substitutions
Starting sequence: PYL1, truncated, DHFR fusion (Arabidopsis thaliana); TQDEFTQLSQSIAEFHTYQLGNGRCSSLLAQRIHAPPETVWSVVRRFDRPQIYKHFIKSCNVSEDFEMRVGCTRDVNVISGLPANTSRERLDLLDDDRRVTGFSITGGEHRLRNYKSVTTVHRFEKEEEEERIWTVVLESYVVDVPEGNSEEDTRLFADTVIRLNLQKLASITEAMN
Substitution | relative binding score
N114T | 75.9%
A158V | 98.4%
L166P | 19.1%
L29F | 77.8%
V70C | 92%
E67F | 92.9%
D3V | 91.1%
S26Q | 91.9%
V142H | 92.8%
S87G | 61.9%
Y18S | 96.4%

Series 5 — target: CCND3, cyclin fold, Cln2 fusion (human); technique: yeast growth competition, sequencing; medium: yeast; setting: weak parent motif; baseline: not given; reading: higher = stronger binding
Starting sequence: GMNC docking peptide (human); KNAKRNLSSEFAN
Substitution | normalised enrichment score
KIAKRNLSSEFAN [N2I] | 0.114
KNAKRNLSMEFAN [S9M] | 0.239
KNAKRNLSSHFAN [E10H] | -0.0164
KNAKRNASSEFAN [L7A] | 0.393
KNAKRNLSHEFAN [S9H] | -0.252
KNAKRNLSSESAN [F11S] | 0.0861
KFAKRNLSSEFAN [N2F] | 0.279
KNAKDNLSSEFAN [R5D] | 0.0752
KNAKRNLSSEFKN [A12K] | 0.427
KNAKRNRSSEFAN [L7R] | -0.0195
KNAKRNQSSEFAN [L7Q] | 0.124
KNAKRNESSEFAN [L7E] | 0.0301
KNAKRNLSEEFAN [S9E] | 0.14
KNAKYNLSSEFAN [R5Y] | 0.146
KNAQRNLSSEFAN [K4Q] | 0.306
